Experimental data pooled from the literature.
Lines come from different studies, so protocols differ. Numbers after ± are the reported error.
Chain of UniProt Q9UL54 (whole entry, looked up): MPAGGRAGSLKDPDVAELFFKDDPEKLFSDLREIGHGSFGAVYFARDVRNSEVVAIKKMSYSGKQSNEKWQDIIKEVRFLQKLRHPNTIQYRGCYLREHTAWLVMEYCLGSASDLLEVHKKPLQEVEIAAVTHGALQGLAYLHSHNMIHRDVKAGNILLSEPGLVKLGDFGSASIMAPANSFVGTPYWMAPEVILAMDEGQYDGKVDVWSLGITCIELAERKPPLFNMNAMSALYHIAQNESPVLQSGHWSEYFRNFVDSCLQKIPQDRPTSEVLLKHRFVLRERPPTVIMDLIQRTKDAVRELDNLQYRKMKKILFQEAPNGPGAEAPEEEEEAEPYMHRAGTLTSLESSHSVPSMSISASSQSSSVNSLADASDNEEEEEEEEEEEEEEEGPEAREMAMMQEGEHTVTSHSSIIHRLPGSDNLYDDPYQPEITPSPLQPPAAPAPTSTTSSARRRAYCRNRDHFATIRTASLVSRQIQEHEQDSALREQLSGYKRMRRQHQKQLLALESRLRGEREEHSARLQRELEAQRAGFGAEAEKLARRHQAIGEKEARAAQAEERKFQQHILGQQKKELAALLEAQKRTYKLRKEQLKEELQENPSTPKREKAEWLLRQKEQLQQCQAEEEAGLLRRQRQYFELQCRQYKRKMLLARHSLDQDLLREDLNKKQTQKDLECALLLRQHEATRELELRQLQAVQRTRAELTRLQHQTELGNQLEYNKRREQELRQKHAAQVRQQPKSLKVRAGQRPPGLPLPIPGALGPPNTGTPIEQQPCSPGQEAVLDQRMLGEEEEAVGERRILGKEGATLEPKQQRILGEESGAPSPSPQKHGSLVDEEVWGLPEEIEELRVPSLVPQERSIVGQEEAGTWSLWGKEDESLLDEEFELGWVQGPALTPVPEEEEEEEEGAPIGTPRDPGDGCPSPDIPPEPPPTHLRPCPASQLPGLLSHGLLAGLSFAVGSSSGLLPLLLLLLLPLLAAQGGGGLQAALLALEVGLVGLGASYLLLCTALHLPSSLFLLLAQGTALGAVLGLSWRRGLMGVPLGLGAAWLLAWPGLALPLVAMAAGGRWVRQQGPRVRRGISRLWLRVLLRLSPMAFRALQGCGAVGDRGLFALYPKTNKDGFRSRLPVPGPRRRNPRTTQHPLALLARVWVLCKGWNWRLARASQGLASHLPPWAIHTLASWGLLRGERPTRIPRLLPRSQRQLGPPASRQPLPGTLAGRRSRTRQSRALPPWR

| SMILES | tested on | assay | test system | conditions | scale | quantity | value |
| --- | --- | --- | --- | --- | --- | --- | --- |
| CC(C)(O)c1ncc([S@](N)(=O)=NC(=O)Nc2c3c(cc4c2CCC4)CCC3)s1 |  | item: nervous system disorders | healthy human volunteers | oral, 200 mg once daily, 14 days, spray-dried dispersion |  | subjects with adverse events | 57% |
| CCCCCCCCCCCCCCCC(=O)N[C@@H](CCC(=O)NCCCC[C@H](NC(=O)[C@H](C)NC(=O)[C@H](C)NC(=O)[C@H](CCC(N)=O)NC(=O)CNC(=O)[C@H](CCC(=O)O)NC(=O)[C@H](CC(C)C)NC(=O)[C@H](Cc1ccc(O)cc1)NC(=O)[C@H](CO)NC(=O)[C@H](CO)NC(=O)[C@@H](NC(=O)[C@H](CC(=O)O)NC(=O)[C@H](CO)NC(=O)[C@@H](NC(=O)[C@H](Cc1ccccc1)NC(=O)[C@@H](NC(=O)CNC(=O)[C@H](CCC(=O)O)NC(=O)[C@H](C)NC(=O)[C@@H](N)Cc1cnc[nH]1)[C@@H](C)O)[C@@H](C)O)C(C)C)C(=O)N[C@@H](CCC(=O)O)C(=O)N[C@@H](Cc1ccccc1)C(=O)N[C@H](C(=O)N[C@@H](C)C(=O)N[C@@H](Cc1c[nH]c2ccccc12)C(=O)N[C@@H](CC(C)C)C(=O)N[C@H](C(=O)N[C@@H](CCCNC(=N)N)C(=O)NCC(=O)N[C@@H](CCCNC(=N)N)C(=O)NCC(=O)O)C(C)C)[C@@H](C)CC)C(=O)O |  |  | obese diabetic cynomolgus monkey, serum | dose not given, day 43 |  | AST | 25 ± 3.3 U/L |
| COc1cccc(OC)c1-c1cc(C(=O)NC2(C(=O)O)C3CC4CC(C3)CC2C4)nn1-c1ccc(C(=O)N(C)CCOCCN(C)C(=O)[C@H](CCCCNC(=O)[C@H](CC(C)C)NC(=O)C2OC2C(=O)O)NC(=O)CN2CCN(CC(=O)[O-])CCN(CC(=O)[O-])CCN(CC(=O)[O-])CC2)cc1C(C)C.[177Lu+3] (mixture of isomers) |  |  | mouse HT-29 xenograft | 4 h, biodistribution | baseline: tumour over large intestine | tumour-to-large intestine ratio | 2.92 |
| CCN(CC)c1ccc(-c2oc3cc4ccccc4cc3c(=O)c2O)cc1 |  |  | DMSO | together with: visible light |  | CO release quantum yield | 0.006 |
| Cc1nn(-c2cccc(N)c2)c(=O)c2cnc(Nc3ccc(N4CCNCC4)cc3)nc12 | TAOK2 (Homo sapiens, UniProt Q9UL54) | inhibitor |  |  |  | IC50 | > 10 µM |
| C=CC(=O)Nc1cccc(Cn2ncc3cnc(Nc4cnn(CCOC)c4)nc32)c1 |  |  | human, both sexes, whole blood | 5 µM, 120 min |  | remaining compound | 64.3% |
| CNS(=O)(=O)Nc1nccc(Cc2c(C)c3ccc(Oc4ncccc4F)cc3oc2=O)c1F | U-118-MG | cell viability |  | 7 days |  | IC50 | 0.22 µM |
| CCCCN1C(=O)c2cccc3c(NCCCCCCN4CCOCC4)ccc(c23)C1=O |  |  | methanol |  |  | fluorescence lifetime | 8.4 ns |
| CCc1cnc(NC(=O)c2cc(S(=O)(=O)N3CCOCC3)ccc2N(C)C2CCCC2)s1 |  |  | mouse, blood | 10 mg/kg, 3 doses |  | Neutrophils differential count | 22% |
| COc1cc(C=CC(=O)Nc2ccc(-c3ccc(NC(=O)C=Cc4ccc(O)c(OC)c4)cc3)cc2)ccc1O |  | shake flask UV/Vis | n-octanol/water |  |  | logP | 5.12 |
| C=C(NC(=O)c1csc(-c2nc3c(cc2O)-c2nc(cs2)C(=O)NC(C(C)O)C(=O)NC(=C(C)OC)c2nc(cs2)C(=O)NC2c4nc(cs4)C(=O)NC(COC(=O)c4c5c6c(cccc6n4O)COC(=O)C(OC4CC(C)(O)C(N(C)C)C(C)O4)C2OC5)c2nc-3cs2)n1)C(N)=O (stereo not drawn) |  |  | cynomolgus monkey, both sexes, plasma | intravenous infusion, 1.5 mg/kg twice daily, 6 to 12 h, second dose |  | half-life | 0.93 ± 0.13 h |
| CN1CCCNC(=O)c2cccc(c2)C(=O)NCCCN(C)CCCNc2cccc3c2C(=O)c2cccc(c2C3=O)NCCC1 | SAS | RNA-Seq, item: SSR2 mRNA |  | 5 µM, 24 h | baseline: untreated cells | log2 fold change | -2.25 |
| Cc1ncsc1-c1ccc(C(C)NC(=O)C2CC(O)CN2C(=O)C(NC(=O)CCCCCCCCCCN2CCCC(Nc3ncc(Cl)c(Nc4ccccc4S(=O)(=O)C(C)C)n3)C2)C(C)(C)C)cc1 (stereo not drawn) | 22Rv1 | RNA-seq, item: ZNF564 mRNA |  | concentration not given | baseline: DMSO | log2 fold change | -2.3 |
| COC1CN([C@H]2CC[C@H]([C@@]3(C)Oc4c(Cl)cc(C(=O)NCc5c(SC)cc(C)[nH]c5=O)c(C)c4O3)CC2)C1 |  | RNA-seq, item: MEIS1 mouse homolog | mouse, HT-1376 xenograft, whole blood | dose not given | baseline: vehicle | log2 fold change | 0.383 |
| C=CC(=O)Nc1cc(Nc2nccc(-c3c[nH]c4ccccc34)n2)c(OC)cc1N(C)CCN(C)C |  | storage stability | human plasma | 72 h, on ice, high QC level |  | recovery | 71.9% |
| O=C1NC2(CC2)COc2ncc(F)cc2[C@H]2COCCN2c2ccn3ncc1c3n2 | Salmonella typhimurium | Ames test | TA1535 | 500 µg/plate, 48 h, together with: without S9 |  | revertant colonies | 10 ± 2 revertants/plate |
| O=C(Nc1cnccc1-c1ccc([18F])nc1)c1ccnc(NC(=O)C2CC2)c1 |  |  | mice, transgenic, GSK-3β, early-stage, stomach | intravenous, dose not given, 120 min, together with: tariquidar 15 mg/kg i.v. pre-dose |  | SUV | 0.432 |
| OC1(C(F)(F)F)CCN(c2nc(Nc3ccnc(C(F)(F)F)c3)nc(-c3cccc(C(F)(F)F)n3)n2)C1 (stereo not drawn) |  |  | monkey, blood | oral, 3 mg/kg |  | MRT(0-inf) | 31.5 ± 3.92 h |

A few entries again:
| SMILES | tested on | assay | test system | conditions | scale | quantity | value |
| --- | --- | --- | --- | --- | --- | --- | --- |
| CC(C)(O)c1ncc([S@](N)(=O)=NC(=O)Nc2c3c(cc4c2CCC4)CCC3)s1 |  | item: nervous system disorders | healthy human volunteers | oral, 200 mg once daily, 14 days, spray-dried dispersion |  | subjects with adverse events | 57% |
| Cc1nn(-c2cccc(N)c2)c(=O)c2cnc(Nc3ccc(N4CCNCC4)cc3)nc12 | TAOK2 (Homo sapiens, UniProt Q9UL54) | inhibitor |  |  |  | IC50 | > 10 µM |
